{"data": "Experimental data collected from several papers", "note": "Parts stem from different laboratories: compare values within a part only. Substitutions count along the parent as printed."}
{"data": "Series 1", "target": "ABI1, truncated, D143A, DHFR fusion (Arabidopsis thaliana)", "method": "DHFR PCA, deep sequencing", "matrix": "yeast", "setting": "methotrexate growth selection, single substitutions", "added": "(+)-ABA 0.0091 µM", "baseline": "wild-type fitted maximum", "direction": "higher = stronger binding", "starting sequence": "PYL1, truncated, DHFR fusion (Arabidopsis thaliana); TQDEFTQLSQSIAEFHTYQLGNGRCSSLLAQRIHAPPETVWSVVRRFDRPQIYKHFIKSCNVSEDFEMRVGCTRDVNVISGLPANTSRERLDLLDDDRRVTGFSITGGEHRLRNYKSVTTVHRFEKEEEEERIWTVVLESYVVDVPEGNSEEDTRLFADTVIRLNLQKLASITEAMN"}
{"Variant": "I33K", "relative binding score [%]": -9.28}
{"Variant": "G102I", "relative binding score [%]": -2.85}
{"Variant": "F56C", "relative binding score [%]": 0.597}
{"Variant": "S80E", "relative binding score [%]": 4.12}
{"Variant": "E131G", "relative binding score [%]": 56}
{"Variant": "F157E", "relative binding score [%]": -0.723}
{"Variant": "M176I", "relative binding score [%]": 7.05}
{"Variant": "I172L", "relative binding score [%]": 19.9}
{"Variant": "L156M", "relative binding score [%]": 23.8}
{"Variant": "A158W", "relative binding score [%]": 9.29}
{"Variant": "P50W", "relative binding score [%]": -0.186}
{"Variant": "I52M", "relative binding score [%]": 39.3}
{"Variant": "D159Q", "relative binding score [%]": -13.9}
{"Variant": "A158F", "relative binding score [%]": 21.2}
{"Variant": "V78G", "relative binding score [%]": 31.2}
{"Variant": "V143T", "relative binding score [%]": 11.8}
{"Variant": "N22R", "relative binding score [%]": 37.9}
{"Variant": "V78E", "relative binding score [%]": -6.31}
{"Variant": "P83E", "relative binding score [%]": 13.6}
{"Variant": "E129N", "relative binding score [%]": 18.2}
{"data": "Series 2", "target": "Prothrombin, mature alpha-thrombin (F2, Homo sapiens, UniProt P00734)", "method": "aptamer microarray, sandwich", "molecule type": "DNA with 2'F-ANA", "matrix": "in vitro", "concentration": "200 nM", "setting": "whole 15-mer aptamer, many near background", "added": "Cy3 exosite-II aptamer, 400 nM", "direction": "higher = stronger binding", "strand": "GGTTGGTGTGGTTGG"}
{"Modification": "2'F-ANA at 2 4 6 10 11", "mean fluorescence intensity [a.u.]": 108}
{"Modification": "2'F-ANA at 1 2 3 4 5 6 7 8 10 11 13", "mean fluorescence intensity [a.u.]": 82.2}
{"Modification": "2'F-ANA at 1 3 4 5 7 11 12 13 14", "mean fluorescence intensity [a.u.]": 49.1}
{"Modification": "2'F-ANA at 1 5 7 9 12 14 15", "mean fluorescence intensity [a.u.]": 49.7}
{"Modification": "2'F-ANA at 2 3 7 9 10 11 12 15", "mean fluorescence intensity [a.u.]": 404}
{"Modification": "2'F-ANA at 4 6 7 11 15", "mean fluorescence intensity [a.u.]": 201}
{"Modification": "2'F-ANA at 2 3 4 8 10 11 13 14", "mean fluorescence intensity [a.u.]": 158}
{"Modification": "2'F-ANA at 3 8 10 11 13", "mean fluorescence intensity [a.u.]": 443}
{"Modification": "2'F-ANA at 1 2 3 5 7 10", "mean fluorescence intensity [a.u.]": 62.4}
{"Modification": "2'F-ANA at 3 4 5 6 8 9 12 14", "mean fluorescence intensity [a.u.]": 98.2}
{"Modification": "2'F-ANA at 2 3 4 9", "mean fluorescence intensity [a.u.]": 596}
{"Modification": "2'F-ANA at 4 8 11 12 13", "mean fluorescence intensity [a.u.]": 391}
{"Modification": "2'F-ANA at 3 5 6 7 8 9 11 12 13 14 15", "mean fluorescence intensity [a.u.]": 56.9}
{"Modification": "2'F-ANA at 2 4 7 8 10 12 13 14 15", "mean fluorescence intensity [a.u.]": 74.8}
{"Modification": "2'F-ANA at 2 3 5 6 10 11 12 13 14 15", "mean fluorescence intensity [a.u.]": 61}
{"Modification": "2'F-ANA at 1 3 5 6 7 8 9 10 11 12 14 15", "mean fluorescence intensity [a.u.]": 52.9}
{"Modification": "2'F-ANA at 1 2 7 9 10 11 12 13 15", "mean fluorescence intensity [a.u.]": 64.5}
{"Modification": "2'F-ANA at 1 3 4 5 6 7 9 10 11 12 14", "mean fluorescence intensity [a.u.]": 47.4}
{"Modification": "2'F-ANA at 3 4 5 6 8 10 11", "mean fluorescence intensity [a.u.]": 51.5}
{"Modification": "2'F-ANA at 2 3 6 8 9 11 12 15", "mean fluorescence intensity [a.u.]": 815}
{"Modification": "2'F-ANA at 1 7 9 10 11 13 14", "mean fluorescence intensity [a.u.]": 45.9}
{"Modification": "2'F-ANA at 2 4 6 7 8 9 11 14", "mean fluorescence intensity [a.u.]": 81.9}
{"Modification": "2'F-ANA at 5 7 10 13", "mean fluorescence intensity [a.u.]": 45.7}
{"Modification": "2'F-ANA at 1 5 6 7 8 10 11 14 15", "mean fluorescence intensity [a.u.]": 62.1}
{"data": "Series 3", "target": "RNA binding protein fox-1 homolog 2, RRM domain, GST-SBP tag (RBFOX2, Homo sapiens, UniProt O43251-10, residues 100-194)", "method": "RNA Bind-n-Seq", "molecule type": "RNA", "matrix": "in vitro", "concentration": "365 nM", "setting": "natural RNA segment, single round, ends assumed", "baseline": "no-protein control", "direction": "higher = stronger binding"}
{"Strand": "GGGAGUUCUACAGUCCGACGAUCGGGAAGCUUGGGAGAGCAAUAGUAUGGUGAGCCCCUUAGAGAUGAGCGCCUACUCCUUCUUGGCGAAUGCUGCCUUCAGAUGCUUACCAAGUGGUCACUGCAUCUAGUAAUGGAAUUCUCGGGUGCCAA", "RBNS enrichment (R)": 0.678}
{"Strand": "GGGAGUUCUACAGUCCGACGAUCUGGAACUGGCAACCUUGAAGGGUGAUUCCCCCCCACCCCCAGAGGAUCAGCUGCCUGUGGUUGGGACAGGGCACACCACCUUCCCUCAGACGGUCUUGCUAAGUAUAUGAUGGAAUUCUCGGGUGCCAA", "RBNS enrichment (R)": 2.28}
{"Strand": "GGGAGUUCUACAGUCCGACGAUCUUUGUGGAAUCCCGUAAGCGUAGAAUACCAAGUUUAGUGACUAUUUAAACUGGGCUGAGGCUGGUAAGACUAUAAAGCAGUGGCCCAUAAGGACUCUUAAGCGUGAGGCCUGGAAUUCUCGGGUGCCAA", "RBNS enrichment (R)": 0.621}
{"Strand": "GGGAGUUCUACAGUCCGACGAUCUUCCUUCAUUGUUCUCUUCAGGGGCUUUCUUCCACUUUCCUCUUAUGAAACGAAUGUGUUUUUGACUGUUAACUGGGUUCGCUUUCCAGAUCUGUCUUUCCCAAAUGAAAUGGAAUUCUCGGGUGCCAA", "RBNS enrichment (R)": 0.618}
{"Strand": "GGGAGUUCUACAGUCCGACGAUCCCAUCUGUGUGUUGUAGCCACUCACUGUUCACAUCGAGUGUCUCUAGUAACUGCCUCUGGACUCGGAACAGUGAGUAGGAUCAAAAUAAAUACUGUACAUGGUGGGGAAUUGGAAUUCUCGGGUGCCAA", "RBNS enrichment (R)": 0.518}
{"Strand": "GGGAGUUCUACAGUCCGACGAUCACCCACCAGGUUCUGUGUCCUAUGGGCUACACCUGGCUCCAGCAAGAAUGCCUGCCAUGGGCACUUCUCUGUACCCGGGCUCCAGUGCCAGGCCAGCCUCUCACUCCCAAUGGAAUUCUCGGGUGCCAA", "RBNS enrichment (R)": 0.385}
{"Strand": "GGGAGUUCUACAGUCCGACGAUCAGUCUGGAGUAUCGCUCCGUUCCCUGGCAGAAGGUUCCAGCCAGGAGGAUGUGCUGAAGAUGGUCUGGUCCUAACUGCCAGACACAAUGUCCGUGACAUUAAAGGCUCCAUGGAAUUCUCGGGUGCCAA", "RBNS enrichment (R)": 0.432}
{"Strand": "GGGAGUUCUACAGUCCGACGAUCCAAGAGCCCACCUCCUGCUGUGUGAUGUCAUCAGGACACCCCCACCCUCACCCCACCACCAGGGUCCUGACUUCACAUUCUUCACAGAAGGGGACAAGACCUCCAGGAGGUGGAAUUCUCGGGUGCCAA", "RBNS enrichment (R)": 0.387}
{"Strand": "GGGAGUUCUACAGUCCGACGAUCCAACCACUCGUUGGUCAAGUUCAGACACCAUCCAUGGAGGUUGCAGGAAAGCUGGGGAAGGUUAUGAGUGGGAAUACUGUUUCGAAAGUAUCGUGCAUUAAAUGGGCAGUUGGAAUUCUCGGGUGCCAA", "RBNS enrichment (R)": 1.25}
{"Strand": "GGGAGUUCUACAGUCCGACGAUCUCUUGGAAACUAUGACAUCAAAGAUAGACUUUUGCCUAAGUGGCUUAGCUGGGUCUUUCAUAGCCAAACUUGUAUAUUUAAAUUCUUUGUAAUAAUAAUAUCCAAAUCAUUGGAAUUCUCGGGUGCCAA", "RBNS enrichment (R)": 0.451}
{"Strand": "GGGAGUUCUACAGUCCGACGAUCCCCUGGGUUCCUUUGUGCUGCUGUGUGCCUCCUCUCCUGCCGCCCUUUGUCCUCCGCUAAGAGACCCUGCCCUACCUGGCCGCUGGGCCCCGUGACUUUCCCUUCCUGCCUGGAAUUCUCGGGUGCCAA", "RBNS enrichment (R)": 0.499}
{"Strand": "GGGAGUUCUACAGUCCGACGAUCAAACUUGAAAAUAGAAAGCAAAAACCCUCAACUGUUGUAAAUCAUGCAAUUAAGGUUGAUUACUUAUAAAUAUGAACUUUGGAUCACUGUAUAGACUGUUAAAUUUGAUUUGGAAUUCUCGGGUGCCAA", "RBNS enrichment (R)": 0.448}
{"data": "Series 4", "target": "Interferon regulatory factor 7, full length, phosphomimetic (IRF7, Homo sapiens, UniProt Q92985, residues 1-503, S471D/S472D/S475D/S476D/S477D/S483D/S484D/S487D)", "method": "protein-binding microarray", "molecule type": "double-stranded DNA, one strand shown", "matrix": "in vitro", "concentration": "2200 nM top", "setting": "60-bp whole probe", "added": "salmon DNA 0.4 mg/ml", "baseline": "random background probes", "direction": "higher = stronger binding", "shared flanks, not repeated": "GCCTAGCAC … GTCTTGATTCGCTTGACGCTGCTG", "UniProt Q92985, sequence (whole entry, unmodified, looked up)": "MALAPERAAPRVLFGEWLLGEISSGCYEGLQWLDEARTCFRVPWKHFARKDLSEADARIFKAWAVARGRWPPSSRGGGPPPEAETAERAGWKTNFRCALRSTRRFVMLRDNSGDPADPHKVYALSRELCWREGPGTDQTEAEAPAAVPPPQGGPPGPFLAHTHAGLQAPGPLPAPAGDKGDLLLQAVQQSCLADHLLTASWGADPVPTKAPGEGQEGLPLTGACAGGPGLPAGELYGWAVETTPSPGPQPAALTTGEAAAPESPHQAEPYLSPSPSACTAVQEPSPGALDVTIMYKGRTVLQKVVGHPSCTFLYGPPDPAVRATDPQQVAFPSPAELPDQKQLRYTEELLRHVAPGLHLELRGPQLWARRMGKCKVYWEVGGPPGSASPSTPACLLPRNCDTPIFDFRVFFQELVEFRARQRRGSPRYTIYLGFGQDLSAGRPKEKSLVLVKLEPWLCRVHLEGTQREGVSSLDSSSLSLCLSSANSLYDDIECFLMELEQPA"}
{"Strand": "GGCTCTCTGGACTGTGTGTTTGTGCTA", "fitted relative affinity": "0.123 z-score"}
{"Strand": "GACGGTTTCGGGTATCGAGACGTGCTA", "fitted relative affinity": "5.67 z-score"}
{"Strand": "GACGGTTTCCTTTTCCCGACGTGCTAG", "fitted relative affinity": "6.03 z-score"}
{"Strand": "TCATGTATGGATGTGTTACTGTGCTAG", "fitted relative affinity": "1.32 z-score"}
{"Strand": "TTAGGTCTCGTACTGGGTTAGTGCTAG", "fitted relative affinity": "0.309 z-score"}
{"Strand": "GACGATTCCAGTTTCGAGACGTGCTAG", "fitted relative affinity": "4.23 z-score"}
{"Strand": "GACGGTCTCGGTATCCGGACGTGCTAG", "fitted relative affinity": "0.667 z-score"}
{"Strand": "GACGGACTGGGGGCTGGGGACGTGCTA", "fitted relative affinity": "-0.0948 z-score"}
{"Strand": "GACGATATCGGGACTAGAGACGTGCTA", "fitted relative affinity": "-0.236 z-score"}
{"Strand": "GGAGTTTCCACCCTTCTCTCGTGCTAG", "fitted relative affinity": "2.11 z-score"}
{"Strand": "TTAGGTTCCCTTTTACTTTAGTGCTAG", "fitted relative affinity": "2.63 z-score"}
{"Strand": "TCCCCTCTAGGTTCTCTGAAGGTGCTA", "fitted relative affinity": "0.434 z-score"}
{"Strand": "GAAGGACTGGACTTTCGGGACGTGCTA", "fitted relative affinity": "2.23 z-score"}
{"Strand": "GACGGACTGGGGTGTCGGGACGTGCTA", "fitted relative affinity": "-0.996 z-score"}
{"Strand": "TCAGTTTTTGCTTTCTTACTGTGCTAG", "fitted relative affinity": "3.92 z-score"}
{"Strand": "GACGATTTCAGGCTCGAGACGTGCTAG", "fitted relative affinity": "0.457 z-score"}
{"Strand": "GACAGTATCGGACTGGGGACGTGCTAG", "fitted relative affinity": "-0.218 z-score"}
{"Strand": "TTAGGTTCCCTTTTGCTTTAGTGCTAG", "fitted relative affinity": "3.16 z-score"}
{"Strand": "GACGGACTGGCTCTCGGGACGTGCTAG", "fitted relative affinity": "-0.749 z-score"}
{"Strand": "GACGGACTGGGTTTCGGGATGTGCTAG", "fitted relative affinity": "1.78 z-score"}
{"Strand": "TTAGGTATCAGTCTCGGTTAGTGCTAG", "fitted relative affinity": "0.819 z-score"}
{"Strand": "AACGATTTCGGGTTTCGAGACGTGCTA", "fitted relative affinity": "5.41 z-score"}
{"Strand": "TTAGATTTCGGGCTTCGATTAGTGCTA", "fitted relative affinity": "1.1 z-score"}
{"Strand": "TTAGGACTGGGTTTCGATTAGTGCTAG", "fitted relative affinity": "2.67 z-score"}
{"note": "Some of these lines once more (series 4):"}
{"Strand": "GACGGTTTCGGGTATCGAGACGTGCTA", "fitted relative affinity": "5.67 z-score"}
{"Strand": "GACGGACTGGCTCTCGGGACGTGCTAG", "fitted relative affinity": "-0.749 z-score"}
{"Strand": "GACGATTCCAGTTTCGAGACGTGCTAG", "fitted relative affinity": "4.23 z-score"}
{"Strand": "AACGATTTCGGGTTTCGAGACGTGCTA", "fitted relative affinity": "5.41 z-score"}
